Measured values from different studies.
Every numbered part comes from another study and shows a few of its results, in no order. Several values in a cell are separate wells, animals, samples, runs or records. ± marks the error that the study gave.

Series 1
Compound: CC(C)(C)c1ccc(S(=O)(=O)/C=C/C#N)cc1
Target: Replicase polyprotein 1ab, main protease (rep, Severe acute respiratory syndrome coronavirus 2, UniProt P0DTD1)
Effect on: enzyme activity
Mode: inhibitor
Tested at: 20 µM
Quantity: inhibition
primary screen: 100%
hit confirmation, with DTT: -7.9%
hit confirmation, no DTT: 98.9%

Series 2
Target: Replicase polyprotein 1ab, polymerase (rep, Severe acute respiratory syndrome coronavirus 2, UniProt P0DTD1)
Effect on: enzyme activity
Mode: inhibitor
Tested at: 20 µM
Quantity: inhibition
O=C(NC1CC1)c1cc(-c2cccs2)on1: -6.74%
COc1cnc(-n2cnc(C)n2)c2[nH]cc(C(=O)C(=O)N3CCN(C(=O)c4ccccc4)CC3)c12: 1.46%
CC(C)(O)CNc1nc(Nc2ccnc(C(F)(F)F)c2)nc(-c2cccc(C(F)(F)F)n2)n1: 3.13%
COc1cc(C(=O)OCCCN2CCCN(CCCOC(=O)c3cc(OC)c(OC)c(OC)c3)CC2)cc(OC)c1OC: 1.92%
CN1C(=O)C(Cc2c[nH]c3ccccc23)NC1=S (centres unmarked): 0.64%
CCn1cc(C(=O)O)c(=O)c2cc(F)c(N3CCNCC3)nc21: -0.05%
COC[C@H](NC(=O)c1cnc(C)s1)C(=O)N[C@@H](COC)C(=O)N[C@@H](Cc1ccccc1)C(=O)[C@@]1(C)CO1: -7.24%
COc1cc(C(C)=O)ccc1OCCCN1CCC(c2noc3cc(F)ccc23)CC1: -5.35%
C[C@H]1[C@H](OC(=O)CCC(=O)O)O[C@@H]2O[C@@]3(C)CC[C@H]4[C@H](C)CC[C@@H]1[C@@]24OO3: -2.71%
NC(=O)CC[C@@H]1NC(=O)[C@H](Cc2ccccc2)NC(=O)[C@H](Cc2ccc(O)cc2)NC(=O)[C@@H](N)CSSC[C@@H](C(=O)N2CCC[C@H]2C(=O)N[C@@H](CCCN=C(N)N)C(=O)NCC(N)=O)NC(=O)[C@H](CC(N)=O)NC1=O: 2.17%
CCOC(=O)[C@@H](N)Cc1ccc(O)c(O)c1: -1.44%
O=C1c2ccccc2-c2c(NCCc3ccccc3)c(=O)[nH]c3cccc1c23: -26%
Cc1ccc(/C=C2/C(=O)[C@]3(C)CC[C@H]2C3(C)C)cc1: -1.26%
COCCCC/C(=N\OCCN)c1ccc(C(F)(F)F)cc1: -0.67%
O=C(O)C(=O)Nc1cccc(-c2nnn[nH]2)c1: 3.57%
CNC(=O)CN1CCC(Oc2cc3c(Nc4cccc(Cl)c4F)ncnc3cc2OC)CC1: -1.74%
CO/N=C(\C(=O)N[C@@H]1C(=O)N2C(C(=O)OC(C)OC(C)=O)=C(COC(N)=O)CS[C@H]12)c1ccco1 (some centres unmarked): 0.04%
N#Cc1ccc(C(c2ccc(C#N)cc2)n2cncn2)cc1: -2.66%
CCCCCCCCCCCCCCCCO: -9.3%
O=C(COc1ccc(C(=O)c2ccccc2)cc1)NC1CCN(Cc2ccccc2)CC1: -4.47%
CCCCNc1nc(N)c2[nH]c(=O)n(Cc3ccc(OCCN(C)C)nc3)c2n1: -10.9%
CC(C)=CCC/C(C)=C/CC/C(C)=C/CSc1ccccc1C(N)=O: -4.57%
N[C@@H]1CN(c2c(F)cc3c(=O)c(C(=O)O)cn([C@@H]4C[C@@H]4F)c3c2Cl)CC12CC2: 2.32%
CNS(=O)(=O)CCc1ccc2[nH]cc(C3CCN(C)CC3)c2c1: 2.05%
O=C(NC1CCN(CCc2c[nH]c3ccccc23)CC1)c1ccccc1: -7.15%

Other studies, line by line
rep main protease: Replicase polyprotein 1ab, main protease (rep, Severe acute respiratory syndrome coronavirus 2, UniProt P0DTD1)
B1: Urtica dioica agglutinin; sequence looked up; chain QRCGSQGGGGTCPALWCCSIWGWCGDSEPYCGRTCENKCWSGERSDHRCGAAVGNPPCGQDRCCSVHGWCGGGNDYCSGSKCQYRCSSSVRGPRVALSGNSTANSIGNVVVTEPLFDQMFSHRKDCPSQGFYSYHSFLVAAESFPAFGTIGDVATRKREVAAFLAHISQATSGERSDVENPHAWGLCHINTTTVTENDFCTSSDWPCAAGKKYSPRGPIQLTHNFNYGLAGQAIGEDLIQNPDLVEKDPIISFKTALWFWMSQHDNKPSCHDIVLNANSAANRIPNKGVIGNIISRAFGHDDFAVRSSSIGFYKRYCDMLGVSYGHDLKYWFDNTPSSEFQRIQMRVAA
CN1c2ccccc2CNc2cncnc21 — inhibition (SARS-CoV-2; viral replication; Vero E6, USA-WA1/2020; 2.5 µM): 42.1%
O=C([O-])/C=C/C(=O)[O-].[Fe+2] — GFP-positive cells (Vesicular stomatitis virus; pseudovirus infection, FDA-approved drug library screen; concentration not given, SARS-CoV-2 spike pseudotype; baseline: vehicle): 103%
C#C[C@]1(CO)O[C@@H](n2cnc3c(O)ncnc32)C[C@@H]1O — IC50 (HIV-1 M184V; MTT; MT4): 356 ± 77.2 nM
CN(N=O)c1ccc(O)c(O)c1 — IC50 (Gag-Pol polyprotein, integrase (gag-pol, Human immunodeficiency virus type 1 group M subtype B, UniProt P04585); enzyme activity, inhibitor): > 25000 nM
Oc1ccc(/C=N/c2ccccc2/N=C/c2ccc(O)c(O)c2)cc1O — EC50 (vaccinia virus; viral replication; HT-1080): 18000 nM
B1 (Urtica dioica agglutinin) — EC50 (feline coronavirus; viral cytopathic effect, microscopy; CRFK): 2.4 µg/mL
CCCCNC(=O)C1CCCN(Cc2nc(-c3ccc(Cl)cc3)oc2C)C1 (centres unmarked) — maximum response (SARS-CoV-2; cytopathic effect; USA_WA1/2020; round 2, 5-point): 48.2%
CNC(=O)[C@@H](NC(=O)[C@H](CC(C)C)[C@H](O)C(=O)NO)C(C)(C)C — IC50 (Daboia russelii venom proteases; proteolytic activity, inhibitor; venom from MH, added: azocasein substrate): 150 nM
CC[C@H](C)[C@H](NC(=O)[C@H](CC(C)C)NC(=O)[C@H](Cc1c[nH]c2ccccc12)NC(=O)[C@H](CCC(N)=O)NC(=O)[C@@H](NC(=O)[C@H](Cc1ccccc1)NC(=O)[C@H](C)NC(=O)[C@H](CCCCNC(=O)COCCOCCNC(=O)COCCOCCNC(=O)CC[C@H](NC(=O)CCCCCCCCCCCCCCCCCCC(=O)O)C(=O)O)NC(=O)[C@H](CCC(N)=O)NC(=O)[C@H](C)NC(=O)[C@@H](NC(=O)[C@H](CCCCN)NC(=O)[C@H](CC(=O)O)NC(=O)[C@H](CC(C)C)NC(=O)C(C)(C)NC(=O)[C@@H](NC(=O)[C@H](CO)NC(=O)[C@H](Cc1ccc(O)cc1)NC(=O)[C@H](CC(=O)O)NC(=O)[C@H](CO)NC(=O)[C@@H](NC(=O)[C@H](Cc1ccccc1)NC(=O)[C@@H](NC(=O)CNC(=O)[C@H](CCC(=O)O)NC(=O)C(C)(C)NC(=O)[C@@H](N)Cc1ccc(O)cc1)[C@@H](C)O)[C@@H](C)O)[C@@H](C)CC)[C@@H](C)CC)C(C)C)C(=O)N[C@@H](C)C(=O)NCC(=O)NCC(=O)N1CCC[C@H]1C(=O)N[C@@H](CO)C(=O)N[C@@H](CO)C(=O)NCC(=O)N[C@@H](C)C(=O)N1CCC[C@H]1C(=O)N1CCC[C@H]1C(=O)N1CCC[C@H]1C(=O)N[C@@H](CO)C(N)=O — ALT activity (healthy subjects, serum; oral, 5 mg, titrated upward, day 29, multiple ascending dose): 23 ± 5.6 U/L
Nc1ncnc2c([C@@H]3N[C@H](CO)[C@@H](O)[C@H]3O)c[nH]c12 — inhibition (Nipah henipavirus; viral replication; HeLa, Malaysia; 0.4 µM): 9.2%
CC(C)CC(NC(=O)OCc1ccccc1)C(=O)NC(C(=O)NCC(=O)C=[N+]=[N-])C(C)C (centres unmarked) — EC90 (SARS-CoV-2; viral replication; 293T-ACE2, USA-WA1/2020): 251 nM
CNC(=O)[C@]1(O)C(=O)c2c([nH]c3ccc(Cl)cc23)-c2c(OC)c3cc(Cl)ccc3n21 — inhibition (SARS-CoV-2; viral replication, mNeonGreen reporter virus; 50 µM): 4.07%
COC(=O)N[C@H](C(=O)N[C@@H](Cc1ccccc1)[C@@H](O)CN(Cc1ccc(-c2ccccn2)cc1)NC(=O)[C@@H](NC(=O)OC)C(C)(C)C)C(C)(C)C.O=S(=O)(O)O — inhibition (rep main protease; reporter gene (Gaussia luciferase), inhibitor; 20 µM): 2.15%
COc1cc(C(=O)OCCCN2CCCN(CCCOC(=O)c3cc(OC)c(OC)c(OC)c3)CC2)cc(OC)c1OC — EC50 (SARS-CoV-2; viral replication, GFP plate reader screen; cell-based): > 100000 nM
CCc1c(C(=O)C(N)=O)c2c(OCC(=O)O)cccc2n1Cc1ccccc1 — remaining activity (Daboia russelii venom phospholipase A2; enzyme activity, inhibitor; KL population; 0.001 µM, added: NOB substrate; baseline: venom alone): 90.8% and 88.2% and 90.7%
Nc1ccn([C@@H]2O[C@H](COP(=O)(O)OP(=O)(O)OP(=O)(O)O)[C@@H](O)[C@H]2O)c(=O)n1 — Km (Replicase polyprotein 1ab, nsp12 with nsp7/nsp8 (rep, Severe acute respiratory syndrome coronavirus 2, UniProt P0DTD1); substrate; templating base G): 65 ± 10 µM
O=c1ccn([C@@H]2O[C@](F)(CO)[C@@H](O)[C@H]2O)c(=O)[nH]1 — EC50 (Mammarenavirus lujoense; viral replication; HeLa): 290 nM
CCCN1CCN(CCCNC(=O)c2cc3c(Cl)nc4ccccc4c3s2)CC1 — efficacy (SARS-CoV-2; cytopathic effect; USA_WA1/2020; retest 8-point): 75.1%
CC(C)(C)NC(=O)[C@@H]1CN(Cc2cccnc2)CCN1C[C@@H](O)C[C@@H](Cc1ccccc1)C(=O)N[C@H]1c2ccccc2C[C@H]1O — inhibition (rep main protease; reporter gene (Gaussia luciferase), inhibitor; 20 µM): 2.43%
O=C(/C=C/c1ccc(O)c(O)c1/C=C/c1ccc(O)c(O)c1)O[C@H](Cc1ccc(O)c(O)c1)C(=O)O — inhibition (SARS-CoV-2; cytopathic effect; Vero E6; 50 µM, first run): 0%
CN1CCCC(n2nc(Cc3ccc(Cl)cc3)c3ccccc3c2=O)CC1 (centres unmarked) — EC50 (Huh-7; pseudovirus entry; MERS-CoV spike pseudovirus): 2590 ± 880 nM
COc1ccc2nc3c(c(N)c2c1)CCCC3 — EC50 (SARS-CoV-2; viral replication, high-content imaging screen; BetaCov/Belgium/GHB-03021/2020; cell-based): > 25100 nM

Some of these lines once more (series 2):
C[C@H]1[C@H](OC(=O)CCC(=O)O)O[C@@H]2O[C@@]3(C)CC[C@H]4[C@H](C)CC[C@@H]1[C@@]24OO3: -2.71%
NC(=O)CC[C@@H]1NC(=O)[C@H](Cc2ccccc2)NC(=O)[C@H](Cc2ccc(O)cc2)NC(=O)[C@@H](N)CSSC[C@@H](C(=O)N2CCC[C@H]2C(=O)N[C@@H](CCCN=C(N)N)C(=O)NCC(N)=O)NC(=O)[C@H](CC(N)=O)NC1=O: 2.17%
CCOC(=O)[C@@H](N)Cc1ccc(O)c(O)c1: -1.44%
